Published values gathered from unrelated publications.
Lines come from different studies, so protocols differ. Numbers after ± are the reported error.

CCc1nc(C(N)=O)c(Nc2ccc(N3CCC(N4CCN(C)CC4)CC3)c(OC)c2)nc1NC1CCOCC1  AUC(0-24) (Japanese patients, plasma; oral, 80 mg, cycle 0 day -2, single dose, mean): 1050 ng·h/mL
CCCCCCOC(=O)NC(=N)c1ccc(NCc2nc3cc(C(=O)N(CCC(=O)OCC)c4ccccn4)ccc3n2C)cc1  participants with TRAEs (human; oral, 75 mg, compound alone): 12.5%
COc1cc(Nc2ncc3c(n2)-c2ccc(Cl)cc2C(c2c(F)cccc2OC)=NC3)ccc1C(=O)O  AUC(0-12h) (human patients, plasma; oral, 40 mg twice daily, day 7, added: pembrolizumab): 9740 ng·h/mL
C=CC(=O)Nc1cc(Nc2nccc(-c3cn(C)c4ccccc34)n2)c(OC)cc1N(C)CCN(C)C  recovery (storage stability; human dried blood spot; 30 d, on ice, LQC level): 56.7%
CC(C)(C)c1sc2ncnc(Oc3c(F)cccc3OC(F)(F)F)c2c1-c1ccc(Cl)cc1  clearance (wild-type mice, plasma; intravenous, 1 mg/kg): 6 mL/min/kg
NC(=O)N1c2ccccc2C=Cc2ccccc21  adverse events incidence (measured: general and administration site (SOC); human male; oral, dose not given, AEs, treatment-related, on drug, CTCAE): 27%
O=C1CCC(N2Cc3cc(CO)c(F)cc3C2=O)C(=O)N1 (centres unmarked)  half-life (male cynomolgus monkey, plasma; oral, 0.3 mg/kg of parent drug): 1.4 ± 0.1 h
CCN1/C(=C/C(C)=O)Sc2ccc(F)cc21  diastolic blood pressure change (cynomolgus monkey; oral, 10 mg/kg, 4 h post-dose; reference: pre-dose): 114 ± 14.1%
CCN1CCN(Cc2ccc(NC(=O)c3ccc(C)c(NC(=O)c4cncc(-c5cccs5)c4)c3)cc2C(F)(F)F)CC1  mean residence time (C57BL/6 mice, epithelial lining fluid; intraperitoneal, 20 mg/kg): 3.05 h
O=C(Nc1nc2cccc(-c3ccc(CN4CCS(=O)(=O)CC4)cc3)n2n1)C1CC1  patients with immune system disorders (rheumatoid arthritis patients; oral, 100 mg twice daily, 4 weeks, regardless of relatedness): 0%
CNC(=O)c1ccc(-c2cnc3ncc(Cc4ccc5ncccc5c4)n3n2)cc1F  patients with adverse event (measured: Asthenia, all grades; hepatocellular carcinoma patients; oral, 600 mg twice daily, expansion cohort, any causality): 9%
NC1(C(=O)N[C@@H](CCO)c2ccc(Cl)cc2)CCN(c2nc[nH]c3nccc2-3)CC1  incidence of Somnolence (metastatic CRPC patients; dose not given, grade 3 to 4, treatment-related, all doses, added: enzalutamide 160 mg daily): 0%
C[C@@H](N)C1CCN(S(=O)(=O)c2cccc3cnccc23)CC1  Vz/F (healthy volunteers, fasted, plasma; oral, 250 mg): 4940 L
CNC(=O)c1cc(Oc2ccc(NC(=O)Nc3cc(C(C)(C)C)nn3-c3ccc4ncccc4c3)c(F)c2)ccn1  patients with musculoskeletal disorder AE (measured: worst grade 2; human; oral, dose not given, cycles 1 and 2, High Cmax subgroup): 11%
CCCCOc1ccc([C@H]2CC[C@H](CCC)CC2)c(F)c1F  median concentration (human mother-newborn pairs, cord serum; male fetuses): 7.61 ng/mL
Cn1cc(Nc2nccc(-c3ccc4c(c3)CN(C3COC3)CC[C@H]4NC(=O)c3cn(C(C)(C)C)nn3)n2)cn1  naive B cell count change (human, whole blood; 300 mg twice daily, day 7; reference: pre-dose baseline): 87.1%
O=C(N[C@H](Cc1c[nH]c2ccccc12)C(=O)Nc1ccncc1)c1ccc(-c2cc(C(F)(F)F)ccc2F)cc1F  concentration (Swiss Webster mouse, female, heart; oral, 50 mg/kg, 2 h, 20% Kolliphor vehicle): 23.7 µM
CNCc1ccc(-c2[nH]c3cc(F)cc4c3c2CCNC4=O)cc1  neutropenia incidence (human patients; oral, 600 mg twice daily, grade 1): 0%
Cc1cc(-c2nccc3c2ccn3CC(=O)Nc2ccc(-c3cnccn3)cn2)ccn1  subjects with infections (human; 20 mg once daily, multiple ascending dose): 0%
CN[C@@H](C)C(=O)N[C@H]1CN(S(=O)(=O)c2cccc(S(=O)(=O)N3CC[C@H]4CC[C@@H](C(=O)NC(c5ccccc5)c5ccccc5)N4C(=O)[C@@H](NC(=O)[C@H](C)NC)C3)c2)CC[C@H]2CC[C@@H](C(=O)NC(c3ccccc3)c3ccccc3)N2C1=O  AUC(0-t) (LC-MS/MS; human, advanced solid tumours, plasma; intravenous, 7 mg weekly, day 15): 137 ± 47.9 ng·h/mL
C[C@@H](Oc1ccc(S(C)(=O)=O)cc1C(=O)N1C[C@@H]2C[C@]2(c2cc(C(F)(F)F)on2)C1)C(F)(F)F  Vz/F (young humans, plasma; oral, 50 mg once daily, single dose, geometric mean): 372 L
COc1cc(C)c(-c2c(C)cc(OC)c3c(=O)cc(-c4ccc(N(C)C)cc4)oc23)c2oc(-c3ccc(N(C)C)cc3)cc(=O)c12  purity (reverse phase HPLC; DMSO stock solution; 25 mg/mL, 6 months, -20 °C): 94.2%
CCc1cc(C(=O)NC)c2nccc(N3CCc4c(cc(Cn5ccnc5)cc4-c4cn(C)nc4C(F)(F)F)C3=O)c2c1  serum cholesterol change (Sprague Dawley rats; oral, 100 mg/kg once daily, 7 days; reference: vehicle): 3.6%
Cc1ccc(Sc2ccccc2N2CCNCC2)c(C)c1  participants with TEAE (measured: blood in urine; healthy adult men; oral, 20 mg daily, 12 days): 0%
COc1cc(Nc2c(C#N)cnc3cc(OCCCN4CCN(C)CC4)c(OC)cc23)c(Cl)cc1Cl  dose-adjusted solubility (FaSSIF; literature solubility over dose): 3.29e-05 mL⁻¹
C[C@@H](c1ncncc1F)[C@](O)(Cn1cncn1)c1ccc(F)cc1F  serious TEAE (human; oral, 200 mg, drug interaction trial): 0%
COc1ccc(C#N)cc1-c1c[nH]c2ncc(-c3cncc(C(=O)N(C)C)c3)cc12  reactivity half-life (HPLC; acetonitrile/water/DMSO; 50 µM, 37 °C, DIPEA 20 eq, added: N-α-acetyl-lysine): > 24 h
CC[C@H](C)[C@H](NC(=O)[C@H](Cc1ccccc1)NC(=O)[C@H](CCC(=O)O)NC(=O)[C@H](CCCCNC(=O)COCCOCCNC(=O)COCCOCCNC(=O)CC[C@H](NC(=O)CCCCCCCCCCCCCCCCC(=O)O)C(=O)O)NC(=O)[C@H](C)NC(=O)[C@H](C)NC(=O)[C@H](CCC(N)=O)NC(=O)CNC(=O)[C@H](CCC(=O)O)NC(=O)[C@H](CC(C)C)NC(=O)[C@H](Cc1ccc(O)cc1)NC(=O)[C@H](CO)NC(=O)[C@H](CO)NC(=O)[C@@H](NC(=O)[C@H](CC(=O)O)NC(=O)[C@H](CO)NC(=O)[C@@H](NC(=O)[C@H](Cc1ccccc1)NC(=O)[C@@H](NC(=O)CNC(=O)[C@H](CCC(=O)O)NC(=O)C(C)(C)NC(=O)[C@@H](N)Cc1cnc[nH]1)[C@@H](C)O)[C@@H](C)O)C(C)C)C(=O)N[C@@H](C)C(=O)N[C@@H](Cc1c[nH]c2ccccc12)C(=O)N[C@@H](CC(C)C)C(=O)N[C@H](C(=O)N[C@@H](CCCNC(=N)N)C(=O)NCC(=O)N[C@@H](CCCNC(=N)N)C(=O)NCC(=O)O)C(C)C  change in QTcB (healthy human; subcutaneous, 1.5 mg once weekly, 0 h, steady state; reference: placebo, baseline): 8.8 ms
Cl.[2H]C([2H])([2H])CC(=O)c1cnc(NC(=O)C2CC2)cc1Nc1cccc(-c2ncn(C([2H])([2H])[2H])n2)c1OC  terminal elimination rate constant (human, non-fasted; oral, 60 mg once daily, day 14, multiple dose, tablet, geometric mean): 2.03e-05 s⁻¹
C1CCCC1.C1CCCC1.[Cl][W][Cl]  oxidation peak potential (cyclic voltammetry; 100 mM Tris buffer; pH 7.4; reference: Ag/AgCl): 635 mV
CC(=O)N[C@@H](CC(N)=O)C(=O)N[C@@H](CCCNC(=N)N)C(=O)N[C@@H](CC(C)C)C(=O)N[C@H]1CSSC[C@@H](C(=O)N[C@H](C(N)=O)[C@@H](C)O)NC(=O)[C@H](CCCNC(=N)N)NC(=O)[C@H](Cc2c[nH]cn2)NC(=O)[C@H](Cc2cccc3ccccc23)NC(=O)CNC(=O)[C@H](Cc2c[nH]c3ccccc23)NC(=O)[C@H](CC(=O)O)NC(=O)[C@H](CCC(N)=O)NC(=O)[C@H](Cc2c[nH]c3ccccc23)NC(=O)[C@H](C(C)C)NC1=O  retention factor (isocratic RP-HPLC, C18; 32% acetonitrile, phosphate pH 7.4, 1% TFA; 25 °C): 2.689 ± 0.007
N#Cc1ccc2c(c1)[C@H]1CCCN(C(=O)c3ccc4[nH]cnc4c3)[C@H]1C2  androstenedione level (human, male; 40 mg, day 15): 8 nmol/L
COc1cccc(OC)c1-c1cc(C(=O)NC2(C(=O)O)C3CC4CC(C3)CC2C4)nn1-c1ccc(C(=O)N(C)CCCN(C)CCCN(C)C(=O)CN2CCN(CC(=O)[O-])CCN(CC(=O)[O-])CCN(CC(=O)[O-])CC2)cc1C(C)C.[177Lu+3] (centres unmarked)  tumour-to-kidney ratio (mouse, HT-29 xenograft; 168 h post injection, biodistribution; reference: tumour over kidney uptake): 13.7
Nc1ccc(/N=N/c2ccccc2)c(N)n1  inhibition (THP-1; pyroptotic LDH release; 2 µM, 40 min, added: LPS then nigericin): -4.13%
CN1C[C@H](COc2nccc3c(NCc4ccco4)cc(Cl)nc23)OC1=O  LV dP/dt max (rabbit NZW female, isolated Langendorff heart; 10 µM, 15 min): 1190 mmHg/s
CCOc1c([C@H](C)n2nc(C)c3c(N)ncnc32)cc(Cl)c(F)c1[C@@H]1CNC(=O)C1  observations with PR ≤200 ms (ECG; previously treated B-cell malignancy patients; oral, 10 mg once daily, baseline below thresholds): 100%
CC(C)(C(=O)N1CCOc2c(C#N)cncc2C1)C(F)F  subjects with TEAE (measured: nervous system disorders; healthy humans, both sexes; oral, 10 mg single dose): 0%
CC1(O)CCC(C(C)(C)O)CC1 (centres unmarked)  inhibition (THP-1; pyroptotic LDH release; 2 µM, 40 min, added: LPS then nigericin): 27.3%
FC(F)(F)c1ccc(CNc2ccc(Cc3c[nH]c4ncc(Cl)cc34)cn2)cn1  adverse event incidence (measured: Vomiting; patients with advanced solid tumours; oral, dose not given, grade 3 and 4, possibly related to drug): 4%
Cc1cc(C(=O)NC(C)(C)COc2cccc3c2C(N)=NS(=O)(=O)N3)cc(C)n1  dose-normalised AUC(0-last) (Sprague-Dawley rat, male, plasma; oral, 30 mg/kg): 1.11 ng·h/mL/mg/kg
COc1ccc([C@@H](O)c2cc(-c3ncnc4cc(N5CCOCC5)ccc34)c(F)cc2Cl)nn1  drug-related blood lymphatic AE (locally advanced rectal cancer patients; 50 mg, added: capecitabine and radiotherapy): 0%

For quick reference, copied from above:
CN[C@@H](C)C(=O)N[C@H]1CN(S(=O)(=O)c2cccc(S(=O)(=O)N3CC[C@H]4CC[C@@H](C(=O)NC(c5ccccc5)c5ccccc5)N4C(=O)[C@@H](NC(=O)[C@H](C)NC)C3)c2)CC[C@H]2CC[C@@H](C(=O)NC(c3ccccc3)c3ccccc3)N2C1=O  AUC(0-t) (LC-MS/MS; human, advanced solid tumours, plasma; intravenous, 7 mg weekly, day 15): 137 ± 47.9 ng·h/mL
CNCc1ccc(-c2[nH]c3cc(F)cc4c3c2CCNC4=O)cc1  neutropenia incidence (human patients; oral, 600 mg twice daily, grade 1): 0%
CCN1/C(=C/C(C)=O)Sc2ccc(F)cc21  diastolic blood pressure change (cynomolgus monkey; oral, 10 mg/kg, 4 h post-dose; reference: pre-dose): 114 ± 14.1%
CC[C@H](C)[C@H](NC(=O)[C@H](Cc1ccccc1)NC(=O)[C@H](CCC(=O)O)NC(=O)[C@H](CCCCNC(=O)COCCOCCNC(=O)COCCOCCNC(=O)CC[C@H](NC(=O)CCCCCCCCCCCCCCCCC(=O)O)C(=O)O)NC(=O)[C@H](C)NC(=O)[C@H](C)NC(=O)[C@H](CCC(N)=O)NC(=O)CNC(=O)[C@H](CCC(=O)O)NC(=O)[C@H](CC(C)C)NC(=O)[C@H](Cc1ccc(O)cc1)NC(=O)[C@H](CO)NC(=O)[C@H](CO)NC(=O)[C@@H](NC(=O)[C@H](CC(=O)O)NC(=O)[C@H](CO)NC(=O)[C@@H](NC(=O)[C@H](Cc1ccccc1)NC(=O)[C@@H](NC(=O)CNC(=O)[C@H](CCC(=O)O)NC(=O)C(C)(C)NC(=O)[C@@H](N)Cc1cnc[nH]1)[C@@H](C)O)[C@@H](C)O)C(C)C)C(=O)N[C@@H](C)C(=O)N[C@@H](Cc1c[nH]c2ccccc12)C(=O)N[C@@H](CC(C)C)C(=O)N[C@H](C(=O)N[C@@H](CCCNC(=N)N)C(=O)NCC(=O)N[C@@H](CCCNC(=N)N)C(=O)NCC(=O)O)C(C)C  change in QTcB (healthy human; subcutaneous, 1.5 mg once weekly, 0 h, steady state; reference: placebo, baseline): 8.8 ms
CC(=O)N[C@@H](CC(N)=O)C(=O)N[C@@H](CCCNC(=N)N)C(=O)N[C@@H](CC(C)C)C(=O)N[C@H]1CSSC[C@@H](C(=O)N[C@H](C(N)=O)[C@@H](C)O)NC(=O)[C@H](CCCNC(=N)N)NC(=O)[C@H](Cc2c[nH]cn2)NC(=O)[C@H](Cc2cccc3ccccc23)NC(=O)CNC(=O)[C@H](Cc2c[nH]c3ccccc23)NC(=O)[C@H](CC(=O)O)NC(=O)[C@H](CCC(N)=O)NC(=O)[C@H](Cc2c[nH]c3ccccc23)NC(=O)[C@H](C(C)C)NC1=O  retention factor (isocratic RP-HPLC, C18; 32% acetonitrile, phosphate pH 7.4, 1% TFA; 25 °C): 2.689 ± 0.007
